Results pooled from the literature.
Compare with care: the assays were run in different laboratories. “And” joins repeats or separate records; there may be more than shown. Numbers after ± are the reported error.
ERBB4: Receptor tyrosine-protein kinase erbB-4 (ERBB4, Homo sapiens, UniProt Q15303)
Sequence of UniProt A5GZW8 (whole entry, looked up): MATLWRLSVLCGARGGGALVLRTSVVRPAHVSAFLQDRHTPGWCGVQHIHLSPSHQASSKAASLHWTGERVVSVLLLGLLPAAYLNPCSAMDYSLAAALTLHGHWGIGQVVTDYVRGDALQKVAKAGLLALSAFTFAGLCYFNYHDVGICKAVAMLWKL
Sequence of UniProt Q15303 (whole entry, looked up): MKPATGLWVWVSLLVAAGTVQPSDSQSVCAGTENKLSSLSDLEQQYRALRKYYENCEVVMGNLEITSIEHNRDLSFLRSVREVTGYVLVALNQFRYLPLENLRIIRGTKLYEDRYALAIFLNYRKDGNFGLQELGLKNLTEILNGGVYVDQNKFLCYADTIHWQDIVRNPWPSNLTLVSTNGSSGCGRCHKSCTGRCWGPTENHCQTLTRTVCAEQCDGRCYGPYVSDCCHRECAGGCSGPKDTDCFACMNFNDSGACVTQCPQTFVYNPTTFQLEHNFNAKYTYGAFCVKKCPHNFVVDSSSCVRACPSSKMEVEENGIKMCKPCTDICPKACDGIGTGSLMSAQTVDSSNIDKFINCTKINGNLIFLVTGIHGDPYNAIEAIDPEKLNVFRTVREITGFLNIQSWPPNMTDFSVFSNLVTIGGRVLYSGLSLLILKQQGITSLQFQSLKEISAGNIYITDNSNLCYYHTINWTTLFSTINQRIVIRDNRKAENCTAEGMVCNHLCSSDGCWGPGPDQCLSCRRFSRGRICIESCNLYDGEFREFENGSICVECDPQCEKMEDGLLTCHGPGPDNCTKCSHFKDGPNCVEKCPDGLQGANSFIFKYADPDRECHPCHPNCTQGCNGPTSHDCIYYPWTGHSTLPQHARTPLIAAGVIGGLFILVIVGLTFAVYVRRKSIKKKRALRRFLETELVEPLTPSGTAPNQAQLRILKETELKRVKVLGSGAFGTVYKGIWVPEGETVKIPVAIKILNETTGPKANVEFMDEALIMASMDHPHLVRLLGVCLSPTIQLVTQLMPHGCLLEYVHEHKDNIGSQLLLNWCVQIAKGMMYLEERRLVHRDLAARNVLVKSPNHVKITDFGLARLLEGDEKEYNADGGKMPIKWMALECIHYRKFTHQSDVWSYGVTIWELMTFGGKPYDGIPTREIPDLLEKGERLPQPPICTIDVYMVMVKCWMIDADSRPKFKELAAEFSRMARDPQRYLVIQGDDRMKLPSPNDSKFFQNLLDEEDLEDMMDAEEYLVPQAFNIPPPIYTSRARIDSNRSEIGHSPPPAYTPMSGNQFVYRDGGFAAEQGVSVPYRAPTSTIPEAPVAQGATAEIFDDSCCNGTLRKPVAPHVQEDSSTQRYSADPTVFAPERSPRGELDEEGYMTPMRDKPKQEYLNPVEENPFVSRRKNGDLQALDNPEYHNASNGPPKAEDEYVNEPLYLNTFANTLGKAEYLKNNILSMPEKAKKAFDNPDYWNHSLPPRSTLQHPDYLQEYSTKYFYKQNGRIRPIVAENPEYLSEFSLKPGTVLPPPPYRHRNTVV
Sequence of UniProt Q007T0 (whole entry, looked up): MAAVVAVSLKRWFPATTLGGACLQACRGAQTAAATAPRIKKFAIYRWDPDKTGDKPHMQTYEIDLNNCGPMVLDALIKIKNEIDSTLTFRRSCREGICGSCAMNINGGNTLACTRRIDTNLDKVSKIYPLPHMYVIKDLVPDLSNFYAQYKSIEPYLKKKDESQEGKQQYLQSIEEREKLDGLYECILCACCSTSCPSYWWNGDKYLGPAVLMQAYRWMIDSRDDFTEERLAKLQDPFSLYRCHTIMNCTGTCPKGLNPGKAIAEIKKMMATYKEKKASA
Sequence of UniProt D0VWV4 (whole entry, looked up): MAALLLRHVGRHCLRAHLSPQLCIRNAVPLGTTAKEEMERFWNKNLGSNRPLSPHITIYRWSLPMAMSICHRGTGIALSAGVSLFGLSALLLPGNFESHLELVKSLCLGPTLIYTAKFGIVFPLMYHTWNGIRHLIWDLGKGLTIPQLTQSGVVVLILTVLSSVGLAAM
Sequence of UniProt P20273 (whole entry, looked up): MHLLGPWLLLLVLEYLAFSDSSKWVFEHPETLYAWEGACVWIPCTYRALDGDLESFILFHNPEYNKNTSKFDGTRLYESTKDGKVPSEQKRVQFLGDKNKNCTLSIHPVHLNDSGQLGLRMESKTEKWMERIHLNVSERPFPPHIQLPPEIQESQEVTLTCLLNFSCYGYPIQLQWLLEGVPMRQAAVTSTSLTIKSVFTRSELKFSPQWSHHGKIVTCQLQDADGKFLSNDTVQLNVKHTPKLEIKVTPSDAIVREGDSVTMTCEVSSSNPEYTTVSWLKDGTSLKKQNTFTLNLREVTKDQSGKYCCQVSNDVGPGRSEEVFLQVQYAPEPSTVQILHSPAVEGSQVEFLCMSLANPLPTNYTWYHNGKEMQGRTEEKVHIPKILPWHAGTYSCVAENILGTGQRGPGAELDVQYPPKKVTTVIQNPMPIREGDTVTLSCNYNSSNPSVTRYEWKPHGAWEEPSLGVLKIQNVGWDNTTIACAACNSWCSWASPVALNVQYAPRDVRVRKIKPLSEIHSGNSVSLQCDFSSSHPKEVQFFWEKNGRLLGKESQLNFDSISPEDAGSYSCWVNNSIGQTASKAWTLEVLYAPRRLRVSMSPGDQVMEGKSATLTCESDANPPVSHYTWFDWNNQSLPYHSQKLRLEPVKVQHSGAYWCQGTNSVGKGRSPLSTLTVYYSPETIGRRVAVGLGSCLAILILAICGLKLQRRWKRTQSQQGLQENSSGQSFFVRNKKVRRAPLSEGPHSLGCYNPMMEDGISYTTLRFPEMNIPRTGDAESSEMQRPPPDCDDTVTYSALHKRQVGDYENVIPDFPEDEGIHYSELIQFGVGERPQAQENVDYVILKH
Sequence of UniProt Q16288 (whole entry, looked up): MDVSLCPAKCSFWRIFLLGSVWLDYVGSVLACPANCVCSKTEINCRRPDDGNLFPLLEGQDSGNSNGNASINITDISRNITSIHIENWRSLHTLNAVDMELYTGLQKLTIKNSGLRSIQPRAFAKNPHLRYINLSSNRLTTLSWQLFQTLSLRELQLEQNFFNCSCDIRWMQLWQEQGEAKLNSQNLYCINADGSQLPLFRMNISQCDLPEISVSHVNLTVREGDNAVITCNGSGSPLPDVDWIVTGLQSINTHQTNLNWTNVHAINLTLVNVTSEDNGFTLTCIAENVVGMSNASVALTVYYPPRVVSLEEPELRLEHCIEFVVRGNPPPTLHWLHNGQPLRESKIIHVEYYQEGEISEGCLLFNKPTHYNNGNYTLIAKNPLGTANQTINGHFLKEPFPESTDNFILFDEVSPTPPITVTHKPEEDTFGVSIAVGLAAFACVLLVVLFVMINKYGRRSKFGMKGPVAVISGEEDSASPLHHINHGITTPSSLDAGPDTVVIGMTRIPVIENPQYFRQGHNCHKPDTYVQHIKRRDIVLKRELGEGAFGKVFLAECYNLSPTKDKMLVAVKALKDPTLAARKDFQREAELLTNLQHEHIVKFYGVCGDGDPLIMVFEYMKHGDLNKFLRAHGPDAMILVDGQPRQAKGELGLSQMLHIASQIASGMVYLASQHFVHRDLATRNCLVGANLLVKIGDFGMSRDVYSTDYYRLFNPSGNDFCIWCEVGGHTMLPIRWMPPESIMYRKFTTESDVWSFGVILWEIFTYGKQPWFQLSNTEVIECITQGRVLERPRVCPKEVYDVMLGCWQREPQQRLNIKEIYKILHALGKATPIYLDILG
Sequence of UniProt Q3U213 (whole entry, looked up): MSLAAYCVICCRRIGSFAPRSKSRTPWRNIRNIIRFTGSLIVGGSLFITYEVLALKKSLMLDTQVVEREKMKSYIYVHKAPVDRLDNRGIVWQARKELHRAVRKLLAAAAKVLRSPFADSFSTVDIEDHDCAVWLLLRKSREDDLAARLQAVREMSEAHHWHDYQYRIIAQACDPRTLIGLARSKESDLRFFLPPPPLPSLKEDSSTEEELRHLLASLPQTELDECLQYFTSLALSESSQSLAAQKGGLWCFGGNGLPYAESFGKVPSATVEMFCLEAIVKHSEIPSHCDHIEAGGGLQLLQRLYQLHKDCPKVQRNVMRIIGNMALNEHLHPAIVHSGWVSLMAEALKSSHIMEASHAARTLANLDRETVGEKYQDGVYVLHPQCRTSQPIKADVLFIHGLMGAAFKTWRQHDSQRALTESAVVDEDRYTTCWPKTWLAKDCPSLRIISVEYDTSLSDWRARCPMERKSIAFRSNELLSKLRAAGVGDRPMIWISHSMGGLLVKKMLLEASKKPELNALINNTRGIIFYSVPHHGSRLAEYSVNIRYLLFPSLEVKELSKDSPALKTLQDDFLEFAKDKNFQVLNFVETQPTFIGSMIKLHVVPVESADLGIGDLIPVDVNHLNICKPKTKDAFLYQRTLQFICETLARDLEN
Sequence of UniProt P07384 (whole entry, looked up): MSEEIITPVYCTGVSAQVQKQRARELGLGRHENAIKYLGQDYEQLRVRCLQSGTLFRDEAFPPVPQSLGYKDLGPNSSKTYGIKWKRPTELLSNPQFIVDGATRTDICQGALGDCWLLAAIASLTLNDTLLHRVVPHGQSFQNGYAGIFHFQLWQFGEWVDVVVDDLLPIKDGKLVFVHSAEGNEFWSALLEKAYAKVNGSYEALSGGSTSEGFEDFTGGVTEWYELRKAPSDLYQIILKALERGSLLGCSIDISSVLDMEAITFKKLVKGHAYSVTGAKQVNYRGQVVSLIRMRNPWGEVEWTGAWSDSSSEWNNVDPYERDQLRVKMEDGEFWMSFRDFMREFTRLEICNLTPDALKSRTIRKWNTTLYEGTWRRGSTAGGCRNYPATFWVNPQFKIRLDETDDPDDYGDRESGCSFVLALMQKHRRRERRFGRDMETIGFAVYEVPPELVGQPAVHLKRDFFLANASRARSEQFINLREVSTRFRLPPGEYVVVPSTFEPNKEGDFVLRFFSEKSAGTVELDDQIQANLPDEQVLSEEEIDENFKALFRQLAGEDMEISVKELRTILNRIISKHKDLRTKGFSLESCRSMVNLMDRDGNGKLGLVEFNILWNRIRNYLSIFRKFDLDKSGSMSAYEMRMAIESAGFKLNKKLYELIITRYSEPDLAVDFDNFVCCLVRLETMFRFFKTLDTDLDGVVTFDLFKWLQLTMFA

| Compound | target or system | test | system | conditions | scale | quantity | value |
| --- | --- | --- | --- | --- | --- | --- | --- |
| O=C1NC2(CC2)COc2ncc(F)cc2[C@H]2COCCN2c2ccn3ncc1c3n2 |  |  | Sprague-Dawley rat, male, epididymides | oral, 2.5 mg/kg/day, end of recovery, 4-week repeated-dose toxicity |  | epididymis weight | 1.42 ± 0.147 g |
| CCO[C@H]1[C@H](O)[C@@H](N)[C@@H](O[C@H]2[C@H](O[C@@H]3O[C@H](CO)[C@@H](O[C@H]4O[C@@H](CN)[C@@H](O)[C@H](O)[C@H]4N)[C@H]3O)[C@@H](O)[C@H](N)C[C@@H]2N)O[C@@H]1CO | ADRA1A (Homo sapiens, UniProt P35348) | radioligand binding |  | 10 µM, 1% DMSO |  | specific binding | -3% |
| CC(C)[C@H]1NC(=O)C[C@H]2/C=C/CCSSC[C@@H](NC1=O)C(=O)N[C@H](Cc1cccc3ccccc13)C(=O)NCC(=O)O2 | NTRK3 (Homo sapiens, UniProt Q16288) | enzyme activity, inhibitor |  | 10 µM |  | inhibition | -1.5% |
| CC(C)CC(O)(CC(C)C)c1cn(C(=O)N2CCCC2)nn1 | Protein SERAC1 (Serac1, Mus musculus, UniProt Q3U213) | probe labelling, inhibitor, item: Serac1 | mouse, brain | i.p., 0.8 mg/kg, 4 h, protein level | relative to: treated over vehicle mice, lower = stronger inhibition | activity ratio-of-ratios | 2.02 |
| CC(C)C[C@H](NC(=O)[C@H]1O[C@@H]1C(=O)O)C(=O)NCCCCN=C(N)N | CAPN1 (Homo sapiens, UniProt P07384) |  |  |  |  | Hill slope | -1.64 |
| CON(C(=O)c1cn(C)nc1C(F)F)C(C)Cc1c(Cl)cc(Cl)cc1Cl (stereo not shown) | SDHD/SDHC/SDHB (Sus scrofa, UniProt A5GZW8+D0VWV4+Q007T0) | enzyme activity, inhibitor, DCIP reduction | pig | 0.1 µM, together with: DCIP 10 µM |  | reaction velocity | 0.004 µM/s and 0.00434 µM/s |
| CC#CC(=O)NC[C@H](NC(=O)[C@H](CC1CCCCC1)NC(=O)[C@H](CCC(N)=O)NC(C)=O)C(=O)N[C@@H](CC(C)C)C(=O)N[C@@H](Cc1ccccc1)C(=O)O | Beta sliding clamp (Escherichia coli, UniProt P0A988) | binding, isothermal titration calorimetry |  | 22 °C |  | ΔG | -10.5 kcal/mol |
| O=C1NC(=O)c2c1c1cc(F)c[n+]3c1c1c2c2cc(O)ccc2[n]1[Ru-4]312([N]=C=S)[S+]3CC[S+]1CC[S+]2CC3 (stereo not shown) | ERBB4 | enzyme activity |  | 100 nM, human enzyme, together with: 10 µM ATP | relative to: untreated | remaining activity | 109% |
| CN(C)[C@H]1C[C@@]23CC[C@@]4(O2)C(=CC[C@]2(C)[C@@H](c5ccc6ccncc6c5)CC[C@H]24)C=C3[C@@H](O)[C@@H]1O | STK38L (Homo sapiens, UniProt Q9Y2H1) | ATP probe labelling, inhibitor, KiNativ profiling |  | 1 µM |  | inhibition | 3.2% |
| O=C(CF)N[C@H]1[C@H]([C@H](O)[C@H](O)CNC(=O)c2ccc(-c3ccccc3)cc2)O[C@@](OCc2cccc(Cl)c2Cl)(C(=O)O)C[C@@H]1O | CD22 (Homo sapiens, UniProt P20273) | isothermal titration calorimetry |  | concentration not given |  | binding stoichiometry | 1.33 ± 0.29 |
| CS(C)(=O)=Nc1ccc(-c2ccc(-c3nc4cc(O[C@@H]5CO[C@H]6[C@@H]5OC[C@H]6O)[nH]c4cc3F)cc2)cc1 | ERBB4 | enzyme activity, inhibitor |  | 10 µM |  | inhibition | 3% |
| CCCC[C@H]1CNCCN1C[C@@H]1CCCN1C[C@@H](Cc1ccc2ccccc2c1)N1CCN(CCC23CC4CC(CC(C4)C2)C3)[C@H](Cc2ccc(O)cc2)C1 | Oprd1 (Rattus norvegicus, UniProt P33533) | radioligand binding | rat brain membranes | 500 nM, pH 7.5, 25 °C, together with: 2 nM [3H]DPDPE |  | remaining binding | 90.6% |
| CCNC(=S)NN=Cc1c2ccccc2cc2ccccc12.Cc1ccc(C(C)C)cc1.[Cl-].[Cl-].[Ru+2] | Albumin (ALB, Homo sapiens, UniProt P02768) | fluorescence titration, Scatchard |  | 308 K |  | binding constant | 13.8 ± 0.02 10⁴ M⁻¹ |
